Results collected from several papers.
A part holds a random share of what one study measured. Positions count from the first letter of the parent shown.

Study 1
Target: XBP1, bZIP domain (human)
Method: DHFR protein complementation
Sample: yeast
Notes: single substitutions, most at no-binding floor
Relative to: wild-type JUN-FOS pair
Reading: higher = stronger binding
Measurement: binding fitness
Parent: JUN, bZIP domain (human); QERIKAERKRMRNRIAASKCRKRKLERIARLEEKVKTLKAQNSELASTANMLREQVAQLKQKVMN; partner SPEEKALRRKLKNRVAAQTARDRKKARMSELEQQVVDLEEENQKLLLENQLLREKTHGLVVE
Change = T48S; value = -0.738 natural log
Change = V56T; value = -1.26 natural log
Change = E54P; value = -1.46 natural log
Change = E44C; value = -1.31 natural log
Change = N42W; value = -1.35 natural log
Change = A40V; value = -1.04 natural log
Change = N42V; value = -1.33 natural log
Change = L52R; value = -1.42 natural log
Change = A29S; value = -0.93 natural log
Change = S43A; value = -0.233 natural log
Change = R30Y; value = -0.241 natural log
Change = L45H; value = -1.42 natural log
Change = R30I; value = -0.498 natural log
Change = E32R; value = -1.23 natural log
Change = L59W; value = -1.39 natural log
Change = A49G; value = -0.596 natural log
Change = E33I; value = -1.46 natural log

Study 2
Target: ABI1, truncated, D143A, DHFR fusion (Arabidopsis thaliana)
Method: DHFR PCA, deep sequencing
Sample: yeast
Notes: methotrexate growth selection, single substitutions
With: (+)-ABA 200 µM
Relative to: wild-type fitted maximum
Reading: higher = stronger binding
Measurement: relative binding score
Parent: PYL1, truncated, DHFR fusion (Arabidopsis thaliana); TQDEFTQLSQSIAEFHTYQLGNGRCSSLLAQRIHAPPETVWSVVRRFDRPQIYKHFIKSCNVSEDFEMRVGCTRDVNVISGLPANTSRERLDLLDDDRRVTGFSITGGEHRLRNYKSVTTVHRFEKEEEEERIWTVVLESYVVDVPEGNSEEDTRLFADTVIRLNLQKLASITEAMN
Change = H110N; value = 104%
Change = Y141H; value = 16.1%
Change = V76L; value = 98.1%
Change = L164I; value = 94.9%
Change = A158I; value = 99.6%
Change = I133G; value = 116%
Change = L164W; value = 92.2%
Change = T160W; value = 76.1%
Change = E127P; value = 110%
Change = R113H; value = 107%
Change = V145Y; value = 31.2%
Change = T154F; value = -15.6%
Change = D92F; value = 56.2%
Change = E174V; value = 88.6%
Change = G102V; value = 43.6%
Change = E4Q; value = 93.6%
Change = V161P; value = -8.01%
Change = K126L; value = 105%
Change = V43T; value = 83%
Change = R32H; value = 108%
Change = T135W; value = -1.55%
Change = S140H; value = 20.4%
Change = R98Q; value = 96.1%
Change = M68H; value = 101%
Change = R90L; value = 68.3%

Study 3
Target: RNA binding protein fox-1 homolog 2, RRM domain, GST-SBP tag (RBFOX2, Homo sapiens, UniProt O43251-10, residues 100-194)
Method: RNA Bind-n-Seq
Form: RNA
Sample: in vitro
Concentration: 365 nM
Notes: natural RNA segment, single round, ends assumed
Relative to: no-protein control
Reading: higher = stronger binding
Measurement: RBNS enrichment (R)
All sequences stand within: GGGAGUUCUACAGUCCGACGAUC … UGGAAUUCUCGGGUGCCAA
Construct (chain): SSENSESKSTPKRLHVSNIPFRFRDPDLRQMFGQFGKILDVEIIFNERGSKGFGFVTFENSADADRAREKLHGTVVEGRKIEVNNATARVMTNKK
Sequence = UUUUGGCUUUAUGUCCAUUUUACCACUGUUUUUAUCCAAUAAACUAAGUCGGUAUUUUUUGUACCUUCGCCUUUCUAGGAAUGUUAAUUCUUGCUAGUUUCCUAUUUAUG; value = 0.43
Sequence = UUUUCUGUGUGUGUCCUUGUUGCUUUUGCCAGAAAAAGUGGAUUUGACAUGCGUGCCCCGAUGCCACCAUAGCCCCUAGGCCAACAAUGUCAUGGUCUAAACACCAAAAA; value = 0.576
Sequence = CACACAAGGAGCUGGAGAGAUGGCUCAGUGGUUACGAGCACUGACUGCUCUUCUAGAGAUCCUGAGUUCAAUUCCCAGCAACCGCAUGGUGGCUCACAACCAUCUGUAAU; value = 0.343
Sequence = CAGUGCUGCUCACGAGAGCCCAGCCAGUCUCAUGCCUGCAUUGCUGACUUGAACUCACAGUCGCCAAGUCUACCUAUCUUUCUUGGAAGCAGUCUUUCAAAAUUCCUACU; value = 0.316
Sequence = GUUCUCCUUCUGUGAGCAUGGAGUUGAAUGGAAUGCCCACCAGGCCGAGUCUUCUUAGAUGACUGAGCACUGCUUGAUGUUGUGUUUUGAAUAAUUUAAUCUGUACAAUA; value = 0.408
Sequence = UAUUCUGUAUGUGGGUCCCAGACCCUGAUCAGGAAAUGAGCCUCAUGUGUGUCGUUAACAUUUAUAUAUUUCCAUUCAAAAUAUGUAUUCAGUGUUUAUUUCCUCAAAAC; value = 0.322
Sequence = UGUUUUCACUUUUCCUUGUUCGGGAAUGAUAAGGGCAAUGCUUUUUGAGGUUUAACUAACAAGGAUUUACUUCCAGUAACCUGACAUAUCUCAUCUUGUCAGAGCCCUAU; value = 0.225
Sequence = CUCGCCAGUCUCUGUGAGCCUAGGCCCUGAGCUGGGGAGGUGGGGAAGAUUCGGGCAUGUGAGUGCCCCCAGAACUGUCCUGGCUCCUUCCGUAUUAAACGCAUUUGCAU; value = 0.627

Study 4
Target: CCNB3, cyclin fold, Cln2 fusion (human)
Method: yeast growth competition, sequencing
Sample: yeast
Notes: weak parent motif
Relative to: not given
Reading: higher = stronger binding
Measurement: normalised enrichment score
Parent: CDC25A docking peptide (human); PPHRRRLLFACSP
Change = PPHRRRLLAACSP [F9A]; value = 0.307
Change = PPHRPRLLFACSP [R5P]; value = -0.0609
Change = PPHRRRLFFACSP [L8F]; value = 0.346
Change = PPHRRWLLFACSP [R6W]; value = 0.687
Change = PPHRRRQLFACSP [L7Q]; value = -0.0979
Change = PPHRRRLLFACSE [P13E]; value = 0.0274
Change = PPHRRPLLFACSP [R6P]; value = 0.361
Change = PPHRRKLLFACSP [R6K]; value = 0.356
Change = PPHRRRLLFAGSP [C11G]; value = 0.0828
Change = PPHRRRLLFACQP [S12Q]; value = -0.33
Change = PPHRRRFLFACSP [L7F]; value = 0.375
Change = PLHRRRLLFACSP [P2L]; value = 0.133
Change = PPTRRRLLFACSP [H3T]; value = 0.276
Change = PPLRRRLLFACSP [H3L]; value = 0.401
Change = PPHRRRLLFACCP [S12C]; value = 0.157
Change = PPHERRLLFACSP [R4E]; value = 0.134
Change = QPHRRRLLFACSP [P1Q]; value = 0.011
Change = PPHVRRLLFACSP [R4V]; value = 1.21
Change = PPHRRRHLFACSP [L7H]; value = 0.00134
Change = PPHRRRELFACSP [L7E]; value = 0.0584
Change = PPHRRRLLFACTP [S12T]; value = 0.297
Change = PPHRRYLLFACSP [R6Y]; value = -0.162
Change = PPHRNRLLFACSP [R5N]; value = -0.242
Change = DPHRRRLLFACSP [P1D]; value = 0.0651
Change = PPHRQRLLFACSP [R5Q]; value = 0.412

A few entries again (study 2):
Change = G102V; value = 43.6%
Change = V145Y; value = 31.2%
Change = D92F; value = 56.2%
Change = R32H; value = 108%
Change = K126L; value = 105%
Change = L164I; value = 94.9%
Change = I133G; value = 116%
